Results gathered from unrelated publications.
Each line is one published result; not all experiments were run side by side. Several values in a cell are separate wells, animals, samples, runs or records. ± gives the spread as reported. In brackets after ≈: the same amount, converted by molar mass.

Compound | target or system | assay | system | setting | endpoint | result
CN[C@@H]1[C@H](O)[C@H](NC)[C@H]2O[C@]3(O)[C@H](O[C@@H]2[C@H]1O)O[C@H](C)C[C@H]3NC(=O)Cc1cc(Cl)ccn1 | Mycobacterium tuberculosis variant bovis BCG | microbial growth | BCG | – | MIC | 0.4 to 0.8 µg/mL
Cc1ccc2nc(C)c(C(=O)C(=O)N(C)C)n2c1 | Mycobacterium tuberculosis variant bovis BCG | microbial growth | BCG | 6 days | MIC | > 128 µM
COc1ccc(CCNC2=CC3=[N+](C)CCc4c[nH]c(c43)C2=O)cc1 | Babesia duncani | parasite growth, SYBR Green | – | 60 h, blood stage | IC50 | 0.0683 µM
C=CC(c1ccc(-c2ccc(OC)c(F)c2)cc1)n1ccnc1 (stereo not drawn) | Mycobacterium tuberculosis variant bovis BCG | microbial growth | BCG | – | MIC50 | 14.5 µM (≈ 4.47 µg/mL)
Cc1cc(-c2cc([C@@H](C)NC(=O)c3cc(OCCN(C)C)ccc3C)c3ccccc3n2)n(C)n1 | Vero E6 | – | – | 250 µM | viability | 5.2% and 6%
Cc1ccc(CNC(=O)C(=O)c2c(C)nc3ccc(C)cn23)cc1 | Mycolicibacterium smegmatis | microbial growth | MC2155 | 2 mM, 20 h | inhibition zone | 0 mm
O=C1C(=O)c2[nH]cc3c2C(=C1Cl)NCC3 | Babesia duncani | parasite growth, SYBR Green | – | 60 h, blood stage | IC50 | 24 µM
Cc1nc2ccc(Br)cn2c1C(=O)NCc1ccc2oc(-c3ccc(OC(F)(F)F)cc3)nc2c1 | Mycolicibacterium smegmatis | – | – | – | MIC90 | > 100 µM
Nc1ccccc1C(=O)OCC#CCOC(=O)c1ccccc1N | Clavispora lusitaniae | microbial growth, broth dilution | MY1396 | – | MIC | > 128 µg/mL
CSc1ccc(-c2ccc(Cn3ccnc3)cc2)s1 | Mycobacterium tuberculosis variant bovis BCG | microbial growth | BCG | – | MIC50 | 3.2 µM (≈ 0.917 µg/mL)
Cc1cc(Oc2nc(N3CC[C@@H](c4ccncc4)C3)ncc2F)[nH]n1 | Mycobacterium tuberculosis | OD | H37Rv PurF CRISPRi knockdown | 7e-06 µM, added: anhydrotetracycline low | normalised growth | 99% and 101% and 98%
CN[C@@H]1[C@H](O)[C@H](NC)[C@H]2O[C@]3(O)[C@H](O[C@@H]2[C@H]1O)O[C@H](C)C[C@H]3NC(=O)Cc1ccccn1 | Mycobacterium ulcerans | – | ATCC 35840 | – | MIC | 1.6 to 3.1 µg/mL
Fc1cc(-c2ccc3c(c2)OCO3)ccc1Cn1ccnc1 | Mycobacterium tuberculosis variant bovis BCG | microbial growth | BCG | – | MIC50 | 5.8 µM (≈ 1.72 µg/mL)
O=C1C(NCCc2cc(Br)c(O)c(Br)c2)=CC2=NCCc3c[nH]c1c32 | Babesia duncani | parasite growth, SYBR Green | – | 60 h, blood stage | IC50 | 6.82 µM
COc1ccc(-c2ccc3c(c2)CCC3n2ccnc2)cc1 (stereo not drawn) | Mycobacterium tuberculosis variant bovis BCG | microbial growth | BCG | – | MIC50 | 3.3 µM (≈ 0.958 µg/mL)
COc1c(Br)cc(CCNC2=CC3=NCCc4c[nH]c(c43)C2=O)cc1Br | Babesia duncani | parasite growth, SYBR Green | – | 60 h, blood stage | IC50 | 1.82 µM
CN[C@@H]1[C@H](O)[C@H](NC)[C@H]2O[C@]3(O)[C@H](O[C@@H]2[C@H]1O)O[C@H](C)C[C@H]3NC(=O)Cc1ccc(Cl)cn1 | Mycobacterium tuberculosis variant bovis BCG | microbial growth | BCG | – | MIC | 0.8 µg/mL

Compound | target or system | assay | system | setting | endpoint | result
CCc1nc2cc(C(F)(F)F)ccn2c1C(=O)NCc1ccc2oc(-c3ccc(OC(F)(F)F)cc3)nc2c1 | Mycolicibacterium smegmatis | – | – | 72 h | MIC | > 50 µM
Cc1ccc(S(=O)(=O)n2cc3c4c2C(=O)C(NCCc2ccc(O)cc2)=CC4=NCC3)cc1 | Babesia duncani | parasite growth, SYBR Green | – | 60 h, blood stage | IC50 | 0.455 µM
C(=C\c1ccc(-c2ccccc2)cc1)/Cn1ccnc1 | Mycobacterium tuberculosis variant bovis BCG | microbial growth | BCG | – | MIC50 | 1.8 µM (≈ 0.469 µg/mL)
CCc1nc2ccc(Br)cn2c1C(=O)NCc1ccc2oc(-c3ccc(Cl)cc3)nc2c1 | Mycolicibacterium smegmatis | – | – | 72 h | MIC | > 50 µM
Fc1ccc(-c2ccc(/C=C/Cn3ccnc3)cc2)cc1 | Mycobacterium tuberculosis variant bovis BCG | microbial growth | BCG | – | MIC50 | 1.5 µM (≈ 0.417 µg/mL)
Cc1nc2cc(OC(F)(F)F)ccn2c1C(=O)NCc1ccc2oc(-c3ccc(Cl)cc3)nc2c1 | Mycolicibacterium smegmatis | – | – | 72 h | MIC | > 100 µM
N=C(N)NCCC[C@@H]1NC(=O)[C@H](CCCCNC(=O)CCC(NC(=S)Nc2ccc(CC3CN(CC(=O)O)CCN(CC(=O)O)CCN(CC(=O)O)CCN3CC(=O)O)cc2)C(=O)NCCCC[C@@H]2NC(=O)[C@@H](Cc3ccc(O)cc3)NC(=O)[C@H](CC(=O)O)NC(=O)CNC(=O)[C@H](CCCNC(=N)N)NC2=O)NC(=O)[C@@H](Cc2ccc(O)cc2)NC(=O)[C@H](CC(=O)O)NC(=O)CNC1=O (stereo partly drawn) [scandium-44 labelled] | – | PET imaging ROI | female athymic nude mice, U-87 MG xenograft, muscle | intravenous, 4 h, added: cRGD 50 mg/kg blocking | tissue uptake | 0.03 ± 0.01 %ID/g
O=C1NC2(CC2)COc2ncc(F)cc2[C@H]2COCCN2c2ccn3ncc1c3n2 | – | – | Sprague-Dawley rat, male, adrenals | oral, 10 mg/kg/day, 4 weeks, end of treatment | organ-to-body weight ratio | 0.017 ± 0.003%
Cc1nc2cc(Br)ccn2c1C(=O)NCc1ccc2oc(-c3ccc(Cl)cc3)nc2c1 | Mycolicibacterium smegmatis | – | – | 72 h | MIC | > 100 µM
CC(C)CC(C(=O)N1CC2(CC1C#N)C(=O)Nc1ccccc12)N(C)C(=O)c1cc2c(F)cc(F)c(F)c2[nH]1 (stereo not drawn) | human coronavirus 229E | viral replication | – | 0.0037 µM | inhibition | 99%
CCc1nc2cc(C(F)(F)F)ccn2c1C(=O)NCc1ccc2oc(-c3ccc(Cl)cc3)nc2c1 | Mycolicibacterium smegmatis | – | – | – | MIC90 | > 100 µM
CN[C@@H]1[C@H](O)[C@H](NC)[C@H]2O[C@]3(O)[C@H](O[C@@H]2[C@H]1O)O[C@H](C)C[C@H]3NC(=O)Cc1ccc(F)cn1 | Mycobacterium tuberculosis variant bovis BCG | microbial growth | BCG | – | MIC | 0.8 µg/mL
Cc1nc2cc(C(F)(F)F)ccn2c1C(=O)NCc1ccc2oc(-c3ccc(OC(F)(F)F)cc3)nc2c1 | Mycolicibacterium smegmatis | – | – | – | MIC90 | > 100 µM
C[N+]1=C2C=C(NCCc3c[nH]c4ccccc34)C(=O)c3[nH]cc(c32)CC1 | Babesia duncani | parasite growth, SYBR Green | – | 60 h, blood stage | IC50 | 0.0301 µM
Cc1ccc(OC[C@H]2CCCN2C)cc1C(=O)N[C@H](C)c1cc(-c2cnn(C)c2)nc2ccccc12 | African green monkey cells | – | – | 31.25 µM | viability | 37.9%
Cc1nc2ccc(OC(F)(F)F)cn2c1C(=O)NCc1ccc2oc(-c3ccc(OC(F)(F)F)cc3)nc2c1 | Mycolicibacterium smegmatis | – | – | 72 h | MIC | > 50 µM

Excerpt of the above:
Compound | target or system | assay | system | setting | endpoint | result
Nc1ccccc1C(=O)OCC#CCOC(=O)c1ccccc1N | Clavispora lusitaniae | microbial growth, broth dilution | MY1396 | – | MIC | > 128 µg/mL
C[N+]1=C2C=C(NCCc3c[nH]c4ccccc34)C(=O)c3[nH]cc(c32)CC1 | Babesia duncani | parasite growth, SYBR Green | – | 60 h, blood stage | IC50 | 0.0301 µM
O=C1NC2(CC2)COc2ncc(F)cc2[C@H]2COCCN2c2ccn3ncc1c3n2 | – | – | Sprague-Dawley rat, male, adrenals | oral, 10 mg/kg/day, 4 weeks, end of treatment | organ-to-body weight ratio | 0.017 ± 0.003%
Cc1nc2cc(OC(F)(F)F)ccn2c1C(=O)NCc1ccc2oc(-c3ccc(Cl)cc3)nc2c1 | Mycolicibacterium smegmatis | – | – | 72 h | MIC | > 100 µM
